{"data": "Published values pooled from the literature", "cell line": "PANC-1", "effect on": "cell growth or viability", "note": "Compare with care: the assays were run in different laboratories."}
{"SMILES": "N=C(N/N=C/c1ccc[nH]1)N/N=C/c1ccc[nH]1", "method": "crystal violet", "time": "72 h", "IC50": "4.1 µM"}
{"SMILES": "c1ccc(-c2cc(-c3ccc(-n4cc(-c5ccc6sc7ccccc7c6c5)nn4)cc3)cc(-c3ccccn3)n2)nc1", "method": "MTS", "time": "72 h", "IC50": "0.78 µM"}
{"SMILES": "COC1=C(OC)C(O)C(CC=C(C)CCC=C(C)CCC=C(C)C(=O)O)C(C)C1=O (centres unmarked)", "method": "MTS", "time": "48 h", "IC50": "> 25 µM"}
{"SMILES": "N=C(N/N=C/c1ccc2ccccc2c1)N/N=C/c1ccc2ccccc2c1", "method": "crystal violet", "time": "72 h", "IC50": "105 µM"}
{"SMILES": "Cc1nc(Nc2ncc(C(=O)Nc3c(C)cccc3Cl)s2)cc(N2CCN(CCOC(=O)CCCCCCCCCCN)CC2)n1", "method": "MTT", "time": "72 h", "IC50": "5.92 µM"}
{"SMILES": "COc1cccc2c1C(=O)c1c(O)c3c(c(O)c1C2=O)CC(O)(C(CO)=NNC(=O)CCCCC(=O)NNC(=O)CCCc1ccc(I)cc1)CC3OC1CC(N)C(O)C(C)O1 (centres unmarked)", "method": "resazurin", "time": "72 h", "IC50": "2.18 µM"}
{"SMILES": "C=C1CCC(=O)C(C)CCC2C1CC2(C)C(=O)C=CC(C)(C)O (centres unmarked)", "method": "CCK-8", "time": "72 h", "IC50": "7.25 µM"}
{"SMILES": "N=C(N/N=C/c1cc(C(F)(F)F)cc(C(F)(F)F)c1)N/N=C/c1cc(C(F)(F)F)cc(C(F)(F)F)c1", "method": "crystal violet", "time": "72 h", "IC50": "58.2 µM"}
{"SMILES": "C=C1CC[C@@H]2O[C@@]2(C)CC[C@H]2[C@H]1C[C@]2(C)C(=O)/C=C/C(C)(O)CO (some centres unmarked)", "method": "CCK-8", "time": "72 h", "IC50": "6.03 µM"}
{"SMILES": "N=C(N/N=C/c1ccccc1)N/N=C/c1ccccc1", "method": "crystal violet", "time": "72 h", "IC50": "29.6 µM"}
{"SMILES": "Oc1ccc(-c2csc(Cc3ccccc3)n2)c(O)c1", "method": "resazurin", "time": "72 h", "IC50": "32.8 µM"}
{"SMILES": "CCCCCCCCCCCCCCCC(=O)OCCN1CCN(c2cc(Nc3ncc(C(=O)Nc4c(C)cccc4Cl)s3)nc(C)n2)CC1", "method": "MTT", "time": "72 h", "IC50": "0.72 µM"}
{"SMILES": "COc1ccc2c(c1)C(=C1Nc3ccccc3C1=NOCC(O)CO)C(=O)N2 (centres unmarked)", "method": "MTS", "time": "48 h", "IC50": "0.76 µM"}
{"SMILES": "Cc1nc(Nc2ncc(C(=O)Nc3c(C)cccc3Cl)s2)cc(N2CCN(CCOC(=O)[C@@H](N)CCC(=O)O)CC2)n1", "method": "MTT", "time": "72 h", "IC50": "64.1 µM"}
{"SMILES": "N=C(N/N=C/c1ccc(Cl)cc1)N/N=C/c1ccc(Cl)cc1", "method": "crystal violet", "time": "72 h", "IC50": "59.1 µM"}
{"SMILES": "CCC(CC)c1nc(-c2ccc(O)cc2O)cs1", "method": "resazurin", "time": "72 h", "IC50": "8.36 µM"}
{"SMILES": "CC1(C)c2ccccc2-c2ccc(-c3cn(-c4ccc(-c5cc(-c6ccccn6)nc(-c6ccccn6)c5)cc4)nn3)cc21", "method": "MTS", "time": "72 h", "IC50": "1.87 µM"}
{"SMILES": "CCCCn1cc(C(=O)O)c(=O)c2cc(F)c(Nc3ccc(OC)cc3OC)c(N)c21", "method": "SRB", "time": "72 h", "IC50": "> 200 µg/mL"}
{"SMILES": "N=C(N/N=C/c1ccc(F)cc1)N/N=C/c1ccc(F)cc1", "method": "crystal violet", "time": "72 h", "IC50": "28.6 µM"}
{"SMILES": "C=C1CCC(O)C(C)=CCC2C1CC2(C)O (centres unmarked)", "method": "CCK-8", "time": "72 h", "IC50": "> 50 µM"}
